Results gathered from unrelated publications.
Numbered parts are unrelated; each lists some results of a single study.

Set 1 — technique: aptamer microarray, sandwich; molecule type: DNA with 2'F-ANA; sample: in vitro; concentration: 200 nM; added: Cy3 exosite-II aptamer, 400 nM; direction: higher = stronger binding; endpoint: mean fluorescence intensity; strand: GGTTGGTGTGGTTGG
Target: Prothrombin, mature alpha-thrombin (F2, Homo sapiens, UniProt P00734)
Setting: whole 15-mer aptamer, many near background
2'F-ANA at 2 6 10 11 12 14 15: 77.7 a.u.
2'F-ANA at 1 3 7 8 12 13 15: 655 a.u.
2'F-ANA at 1 2 6 7 10 11 15: 73.8 a.u.
2'F-ANA at 9 10 11 14: 107 a.u.
2'F-ANA at 1 3 5 6 10 11 12 14: 46.2 a.u.
2'F-ANA at 1 2 5 6 7 8 12 13 15: 88.5 a.u.
2'F-ANA at 2 3 5 7 8 9 10 11 14: 50.7 a.u.
2'F-ANA at 2 3 4 6 7 8 10 13 14 15: 135 a.u.
2'F-ANA at 1 2 8 9 12 14 15: 71.6 a.u.
2'F-ANA at 1 2 3 5 6 8 9 10 14: 71.4 a.u.
2'F-ANA at 1 2 3 6 7 8 9 10 11: 78.4 a.u.
2'F-ANA at 1 3 4 5 8 9 13 14: 55.5 a.u.
2'F-ANA at 1 3 5 6 7 8 9 11 13 15: 120 a.u.
2'F-ANA at 1 3 4 5 6 8 9 12 13: 82 a.u.
2'F-ANA at 2 8 9 12 13 14: 170 a.u.
2'F-ANA at 2 6 7 8 9 10 11 13 14 15: 82.6 a.u.
2'F-ANA at 2 3 4 5 8 9 11 13: 68.2 a.u.
2'F-ANA at 2 5 9 11 12 15: 102 a.u.
2'F-ANA at 1 3 4 5 6 11 12 15: 97 a.u.
2'F-ANA at 1 2 4 5 6 7 8 10 11 12 13 14: 53.8 a.u.
2'F-ANA at 9 11 13 14: 193 a.u.
2'F-ANA at 5 6 8 9 11 12 13 14 15: 49.7 a.u.
2'F-ANA at 1 2 6 8 9 10 13 14: 51.2 a.u.
2'F-ANA at 2 3 4 6 7 9 12 13: 506 a.u.
2'F-ANA at 2 3 6 7 10 12 13: 409 a.u.

Set 2 — technique: protein binding microarray; molecule type: double-stranded DNA, one strand shown; sample: in vitro; concentration: not given; relative to: not given; direction: higher = stronger binding; endpoint: E-score
Target: Histone acetyltransferase KAT6A, both winged helices, GST fusion (KAT6A, Homo sapiens, UniProt Q92794, residues 1-181)
Setting: 8-mer, flanks averaged, mean of 2 arrays, mostly near background
Target sequence (chain): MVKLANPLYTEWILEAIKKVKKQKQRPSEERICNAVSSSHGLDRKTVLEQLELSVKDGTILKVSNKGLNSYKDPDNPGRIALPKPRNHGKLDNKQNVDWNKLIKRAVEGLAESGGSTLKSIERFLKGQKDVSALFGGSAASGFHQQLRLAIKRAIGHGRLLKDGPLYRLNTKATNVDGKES
AAGTGTGC: -0.104
GCGTTTCA: 0.219
GCCAGCAC: -0.0606
CGGTTATC: 0.243
CTCGTACA: -0.106
CAAGTGGG: -0.194
CGCCTCTA: 0.14
ATTCAATC: -0.0292
CCAGAGTA: 0.0212
CCGTCATA: 0.201
TGACTCCA: -0.322
GCTCGCAA: 0.0266
CGGTGGAC: -0.027
AAATTTTG: 0.0223
CAGAAGGG: -0.12
ACCTCTAC: -0.0822
CCGATCGA: 0.0882
GAAAGCGC: 0.347
AGCTACCC: -0.157
GAAATTTC: -0.204
AATCGAGG: -0.197
CGGATGAC: 0.163
CATGTGAC: -0.189
ACACGGAC: 0.211
GAGATAGC: -0.0759

Set 3 — technique: universal PBM; molecule type: double-stranded DNA, one strand shown; sample: in vitro; concentration: 600 nM; direction: higher = stronger binding; endpoint: E-score
Target: Sal-like protein 4, full length isoform A (SALL4, Homo sapiens, UniProt Q9UJQ4, residues 1-1053)
Sequence of UniProt Q9UJQ4 (whole entry, looked up): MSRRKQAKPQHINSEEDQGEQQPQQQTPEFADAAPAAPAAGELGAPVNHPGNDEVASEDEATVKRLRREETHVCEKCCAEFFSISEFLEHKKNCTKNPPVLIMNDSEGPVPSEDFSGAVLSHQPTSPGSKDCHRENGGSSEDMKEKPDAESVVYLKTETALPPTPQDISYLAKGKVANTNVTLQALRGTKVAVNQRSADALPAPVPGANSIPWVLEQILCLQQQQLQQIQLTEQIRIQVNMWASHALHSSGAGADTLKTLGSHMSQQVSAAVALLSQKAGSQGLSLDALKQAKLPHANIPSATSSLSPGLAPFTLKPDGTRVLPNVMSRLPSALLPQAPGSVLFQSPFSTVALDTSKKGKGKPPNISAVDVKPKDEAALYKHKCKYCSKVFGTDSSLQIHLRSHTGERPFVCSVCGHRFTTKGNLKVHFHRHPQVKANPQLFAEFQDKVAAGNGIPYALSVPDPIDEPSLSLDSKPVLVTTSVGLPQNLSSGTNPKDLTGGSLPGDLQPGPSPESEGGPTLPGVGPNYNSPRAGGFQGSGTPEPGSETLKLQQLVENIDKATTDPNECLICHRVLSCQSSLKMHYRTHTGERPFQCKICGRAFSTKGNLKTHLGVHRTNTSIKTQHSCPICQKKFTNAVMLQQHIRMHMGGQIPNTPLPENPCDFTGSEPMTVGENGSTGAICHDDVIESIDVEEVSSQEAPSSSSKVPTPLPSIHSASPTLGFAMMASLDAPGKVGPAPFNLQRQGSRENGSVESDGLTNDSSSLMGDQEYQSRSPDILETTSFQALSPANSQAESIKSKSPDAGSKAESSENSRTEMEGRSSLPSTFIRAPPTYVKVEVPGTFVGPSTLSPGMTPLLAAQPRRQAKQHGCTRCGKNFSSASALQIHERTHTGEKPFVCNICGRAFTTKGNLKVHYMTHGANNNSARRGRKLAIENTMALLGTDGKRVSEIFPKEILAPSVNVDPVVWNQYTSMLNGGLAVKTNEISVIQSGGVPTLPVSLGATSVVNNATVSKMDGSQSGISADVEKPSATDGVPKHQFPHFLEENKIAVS
Setting: 8-mer, flanks averaged, mean of replicates
AGACAACG: -0.107
CCTCGGAG: -0.315
CTCTCTTA: 0.0988
GCTCGCAC: -0.292
AGGTACTC: 0.0455
GAGCCTAA: -0.0133
GGTCAACC: -0.193
GATCTGTA: 0.0512
ACGGGGCT: -0.3
CTTTACTA: 0.204
AACTCTCG: -0.104
CCTTAAGC: -0.109
GGGTAAGA: -0.0596
AGTTAAAC: 0.0518
AAGTCGGC: -0.273
CTTTTGGC: -0.0444
GTGGACAA: 0.04
CATCAACG: 0.0243
GTGTGCAA: -0.11
AATGTCAC: 0.0763
ACGGCGCC: -0.26
TATTTAAA: 0.401
ACAGTCTC: -0.00924
AACTAGAG: 0.0364

Set 4 — technique: RNA Bind-n-Seq; molecule type: RNA; sample: in vitro; concentration: 100 nM; relative to: input RNA pool; direction: higher = stronger binding; endpoint: bound/input enrichment
Target: RING finger protein unkempt homolog, zinc fingers 1-6, SBP tag (UNK, Homo sapiens, UniProt Q9C0B0, residues 30-357)
Sequence of UniProt Q9C0B0 (30-357, looked up): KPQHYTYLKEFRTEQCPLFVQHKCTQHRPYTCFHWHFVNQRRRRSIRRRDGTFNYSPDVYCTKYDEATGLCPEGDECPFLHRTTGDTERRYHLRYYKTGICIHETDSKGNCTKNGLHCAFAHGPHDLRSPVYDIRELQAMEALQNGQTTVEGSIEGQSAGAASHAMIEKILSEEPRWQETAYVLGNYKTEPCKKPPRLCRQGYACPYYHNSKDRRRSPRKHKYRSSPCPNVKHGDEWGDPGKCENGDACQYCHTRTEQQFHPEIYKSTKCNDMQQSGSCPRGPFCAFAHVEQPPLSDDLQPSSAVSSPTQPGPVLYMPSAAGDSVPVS
Setting: RNA with constant flanks, vertebrate orthologous sites, ends assumed
Constant ends, left off below: GGGAGUUCUACAGUCCGACGAUC … CAACAGAGGAUUGAGCAUCA
AGGGCGGCCCCGGGGCCUUGGGCACUGCUGGCCCCCGAGGCUGUUGUUGGCAACCUGACAAAAUAGAUAGGCUUGUGGUUGUUGUUGUUUUGUUUUUUUUUUUUAAUUUAAAGAUAUUAA: 0.973 ratio
GUGGGGAUGAGGGUGGGAUGGGAAAGGGAUGUAUGGAUGUUAUUGGCAUUUUUAAGUGUUUAGAGUUUUUUGGGGUUUGGGGUGGUUUUUUUUCCUUGUUUUCCUUUUUUCCUUUUAAUU: 2.2 ratio
UCCUAAUAUUUAAUUUGCUCAUUUCAAAAUAUUACUUACCUAACCUUAGGUAAUUCAAUCUACAGUUUUCAAUGGUAGUAUAUUGACAGUUUUCACCUAAGUCCUCUCAUAAAGAGGACG: 0.561 ratio
GCACAUGCCACUGUCACCAAAAACAAACUACCACUUUCCAAAUUUCAUUCAGAGCCAUUUUAGUGUUUUCCUAUUCCCUACCCCUGCCACUACUUUCAAUGAUGAAAUACCCUAAGUAAG: 4.69 ratio
UGUGAGCGUCUACAGACGGCUCACCAUUUUUGUCCUGUAUCUGUAAACACUUUUUGUUCUUAGUCUUUUUCUUGUAAAAUUGAUGUUCUUUAAAAUCGUUAAUGUAUAACAGGGCUUAUG: 0.306 ratio
GCACUGCUUGUUCCAGUUUCACAACACUGAAUGCAAAGUAGCAAAUUUCAUAGUCACAGUAAGGUAGCUUUAGGGUAAAGAGUUUGAAAAAAUGUAUCAUAUGUAUAAUUGUUUUCCUUU: 1.21 ratio
CAGUAGAAUUACACUAAUACUGAAGUUAAAAGAAUAUCCAAGGUGAUGAUAAAGUGUGUGUUGGUAGUUGCUAAAAGAACCUUAGCUGUUAUUGCCUUGUAUUUCUAUUCCUUGUUUCAG: 0.545 ratio
GGUAUAGUUUUCAUUGUGAUAAUUAAAAAUAUCUUACCCAUAGUGACAACUAGUUUGCACUAGCAGAAUCAUUUACUAUUACUUUUAAAAUUAUGUGCUGCUUGUGAUAGCGGAAGUCAA: 0.708 ratio
AAAUUUAUUUCAUGCCAUGGACUCCAUAUCGGACGGAUACUUUGAUAGAAUAUGCUUCUUUGGAGGAUUUCCAAAAUAGCCGCCAAACGACAACAUAUAAACUUCCCAAUCGAGUGGAUG: 0.645 ratio
UGUCUGCCUCAUGCUAAAAUUUACACAGUAGACCAUUUGUCAUCCAUGCUGUCCCACAAAUAGUUUUUUUGUUUACGAUUUAUGACAGGUUUAUGUUACUUCUAUUUGAAUUUCUAUAUU: 1.92 ratio
GUCGUCUGAUUGGAUGAAGACUGUCCCGAGUUAUAACCAAACUAAUAGCUCCAUGGACUUCAGAAAUUAUAUGAUGAGAGAUGAGAAUCUGGAACCACUGCCCAAAAACUGGGAGAUGGC: 0.352 ratio

Set 5 — technique: protein-binding microarray; molecule type: double-stranded DNA, one strand shown; sample: in vitro; concentration: 250 nM; setting: 60-bp whole probe; added: salmon DNA 0.4 mg/ml; relative to: random background probes; direction: higher = stronger binding; endpoint: log fluorescence; constant ends, left off below: GCCTAGCAC … GTCTTGATTCGCTTGACGCTGCTG
Target: Interferon regulatory factor 7, full length, phosphomimetic (IRF7, Homo sapiens, UniProt Q92985, residues 1-503, S101K/S471D/S472D/S475D/S476D/S477D/S483D/S484D/S487D)
Sequence of UniProt Q92985 (whole entry, unmodified, looked up): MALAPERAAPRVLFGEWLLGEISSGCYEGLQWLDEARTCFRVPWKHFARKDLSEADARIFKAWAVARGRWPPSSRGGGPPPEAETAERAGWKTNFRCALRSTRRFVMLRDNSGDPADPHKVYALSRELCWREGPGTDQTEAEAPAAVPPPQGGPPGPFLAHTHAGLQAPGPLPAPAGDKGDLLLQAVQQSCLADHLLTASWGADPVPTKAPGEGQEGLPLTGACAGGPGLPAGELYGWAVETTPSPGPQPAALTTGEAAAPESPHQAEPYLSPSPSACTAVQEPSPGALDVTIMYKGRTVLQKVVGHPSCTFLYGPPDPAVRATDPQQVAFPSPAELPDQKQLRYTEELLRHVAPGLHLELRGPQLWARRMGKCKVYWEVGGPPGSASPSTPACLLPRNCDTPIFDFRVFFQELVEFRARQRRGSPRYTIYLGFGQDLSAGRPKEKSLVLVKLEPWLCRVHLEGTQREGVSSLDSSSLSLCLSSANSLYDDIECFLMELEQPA
TTAGACATCGGGTATCGATTAGTGCTA: 0.387 z-score
ATAGATTTCGGGTATCGATTAGTGCTA: 1.96 z-score
GACGGTTTCGGGACTGGGGGCGTGCTA: 5.3 z-score
CACGAACTGGGGACTGGAGACGTGCTA: -0.324 z-score
TTAGAATCCAGTTTCGATTAGTGCTAG: 9.05 z-score
GAAGATCTCAGACTGGAGACGTGCTAG: -0.507 z-score
AGTATGTTCCTTATTTAAGAGTGCTAG: 1.32 z-score
AACGGTCTCCTTCTCCTGACGTGCTAG: 0.000887 z-score
ATTGGTTGAACATGAACTTCGTGCTAG: -0.418 z-score
GACGGACTGGGACTGGGGCCGTGCTAG: -0.461 z-score
TTAGGTTTCCTTTCACTTTAGTGCTAG: 6.36 z-score
GAGGGGGCAGGGACTCAGGGGTGCTAG: 1.5 z-score
CACTCCACCTCTGTGCTCTTGTGCTAG: -0.121 z-score
GACGATTTCAAACTGGAGACGTGCTAG: 0.0366 z-score
TCTTATATACCTGTATATCTGTGCTAG: 0.451 z-score
GACGGACTGGACTATTGGGACGTGCTA: -0.874 z-score
TTAGGTCTCCTTATCCTGTAGTGCTAG: 0.381 z-score
TTGTGTTTGTCCCTATTTAAGTGCTAG: 1.34 z-score
GACGATATCGGGTTTCCAGACGTGCTA: 0.557 z-score
GACGGACTGCGTCTCGGGACGTGCTAG: -0.528 z-score
TTAGGTTTCAACTTTCGGTTAGTGCTA: 3.21 z-score
GACGGTCTCCTTCGCCTGACGTGCTAG: -0.25 z-score
GTAGGTATCGGTATCGGTTAGTGCTAG: 2.18 z-score
GCCGGTTTCGGGTTTCGGGACGTGCTA: 11.7 z-score
TCAACTTCTGTTTTTGCACTGTGCTAG: 0.268 z-score

For quick reference, copied from above (set 5):
GACGGTTTCGGGACTGGGGGCGTGCTA: 5.3 z-score
CACGAACTGGGGACTGGAGACGTGCTA: -0.324 z-score
TTAGAATCCAGTTTCGATTAGTGCTAG: 9.05 z-score
GAAGATCTCAGACTGGAGACGTGCTAG: -0.507 z-score
AGTATGTTCCTTATTTAAGAGTGCTAG: 1.32 z-score
AACGGTCTCCTTCTCCTGACGTGCTAG: 0.000887 z-score
ATTGGTTGAACATGAACTTCGTGCTAG: -0.418 z-score
GACGGACTGGGACTGGGGCCGTGCTAG: -0.461 z-score
TTAGGTTTCCTTTCACTTTAGTGCTAG: 6.36 z-score
GAGGGGGCAGGGACTCAGGGGTGCTAG: 1.5 z-score
CACTCCACCTCTGTGCTCTTGTGCTAG: -0.121 z-score
GACGATTTCAAACTGGAGACGTGCTAG: 0.0366 z-score
TCTTATATACCTGTATATCTGTGCTAG: 0.451 z-score
GACGGACTGGACTATTGGGACGTGCTA: -0.874 z-score
TTAGGTCTCCTTATCCTGTAGTGCTAG: 0.381 z-score
TTGTGTTTGTCCCTATTTAAGTGCTAG: 1.34 z-score
GACGATATCGGGTTTCCAGACGTGCTA: 0.557 z-score
GACGGACTGCGTCTCGGGACGTGCTAG: -0.528 z-score
TTAGGTTTCAACTTTCGGTTAGTGCTA: 3.21 z-score
